# Results from different studies.
# Protocols differ between the studies behind these lines. ± marks the error that the study gave.
# Organism: Leishmania donovani
SMILES,assay,test system,setting,how to read,measurement,result
C[C@@H]1[C@H](O)[C@@H](C)/C=C/C=C/C=C/C=C/C=C/C=C/C=C/[C@H](O[C@@H]2O[C@H](C)[C@@H](O)[C@H](N)[C@@H]2O)C[C@@H]2O[C@](O)(C[C@@H](O)C[C@@H](O)[C@H](O)CC[C@@H](O)C[C@@H](O)CC(=O)O[C@H]1C)C[C@H](O)[C@H]2C(=O)O,parasite growth,THP-1,"intracellular, amastigote",,IC90,441 nM
Clc1ccccc1C(c1ccccc1)(c1ccccc1)n1ccnc1,LC-MS/MS,LV82 promastigote,"20 µM, 24 h, with episterol, 4-methylzymosterol, unit not given",reference: DMSO,fecosterol level,0.025 ± 0.013
O=C1CSC(=S)N1/N=C/c1c[nH]c2ccc([N+](=O)[O-])cc12,"parasite growth, resazurin",THP-1,"24 h, intracellular, amastigote",,IC50,> 10 µM
CSc1ccc(OCc2ncc([N+](=O)[O-])n2C)cc1,,"intracellular amastigotes in macrophages, LdBOB wild type",,,EC50,> 50 µM
O=Cc1c[nH]c2ccc([N+](=O)[O-])cc12,"parasite growth, resazurin",THP-1,"72 h, intracellular, amastigote",,IC50,> 10 µM
c1cnc(NCCCCCn2ccnc2)cn1,,J774.2 macrophages,"IC25, 240 h, day 10",reference: untreated,infection inhibition,50%
CCCCCCCCCCCCCCCCOP(=O)([O-])OCC[N+](C)(C)C,,"human PBMC, DD8",,,EC50,0.51 µM
C[C@@H]1N[C@H](CCCCCCCCCCc2cc(CCCCCCCCCC[C@@H]3CC[C@H](O)[C@@H](C)N3)c3[n+](c2)CCC3)CC[C@H]1O,"parasite growth, resazurin",,"72 h, promastigote",,IC50,0.91 µg/mL
C[C@@H](c1ncncc1F)[C@](O)(Cn1cncn1)c1ccc(F)cc1F,LC-MS/MS,LV82 promastigote,"50 µM, 24 h, with fecosterol, 4-methylzymosterol, unit not given",reference: DMSO,episterol level,0.18 ± 0.06
CCCCCCCCCCCCCCCCOP(=O)([O-])OCC[N+](C)(C)C,parasite growth,"mouse peritoneal macrophages, LV9",intracellular amastigotes,,EC99,52.2 µM
C#CCn1cc(/C=N/N2C(=O)CSC2=S)c2cc([N+](=O)[O-])ccc21,"parasite growth, resazurin",THP-1,"24 h, intracellular, amastigote",,IC50,> 10 µM
Cn1c([N+](=O)[O-])cnc1COc1ccc(S(C)(=O)=O)cc1,parasite growth,mouse Macrophage,"72 h, intracellular, amastigote",,EC50,5.3 µM
Cc1ccc(Cn2cc(/C=C3\SC(=S)NC3=O)c3cc([N+](=O)[O-])ccc32)cc1,"parasite growth, resazurin",THP-1,"72 h, intracellular, amastigote",,IC50,5.91 µM
N=C(N)c1ccc(OCCCCCOc2ccc(C(=N)N)cc2)cc1,"viability, Alamar blue",axenic amastigote,"72 h, pH 5.5, 37 °C",,IC50,3.5 µM
C#CCn1cc(/C=C2\SC(=S)NC2=O)c2cc([N+](=O)[O-])ccc21,"parasite growth, resazurin",THP-1,"24 h, intracellular, amastigote",,IC50,> 10 µM
Cn1c([N+](=O)[O-])cnc1COc1ccc([S+](C)[O-])cc1 (stereo not shown),parasite growth,"mouse peritoneal macrophages, LV9",intracellular amastigotes,,EC99,41.2 µM

# A few entries again:
SMILES,assay,test system,setting,how to read,measurement,result
C#CCn1cc(/C=N/N2C(=O)CSC2=S)c2cc([N+](=O)[O-])ccc21,"parasite growth, resazurin",THP-1,"24 h, intracellular, amastigote",,IC50,> 10 µM
Cn1c([N+](=O)[O-])cnc1COc1ccc(S(C)(=O)=O)cc1,parasite growth,mouse Macrophage,"72 h, intracellular, amastigote",,EC50,5.3 µM
